Measured values gathered from unrelated publications.
A part holds a random share of what one study measured.

Sample 1
Target: RNA binding protein fox-1 homolog 2, RRM domain, GST-SBP tag (RBFOX2, Homo sapiens, UniProt O43251-10, residues 100-194)
Technique: RNA Bind-n-Seq
Form: RNA
Matrix: in vitro
Concentration: 365 nM
Setting: natural RNA segment, single round, ends assumed
Baseline: no-protein control
Reading: higher = stronger binding
Constant ends, left off below: GGGAGUUCUACAGUCCGACGAUC … UGGAAUUCUCGGGUGCCAA
Target sequence (chain): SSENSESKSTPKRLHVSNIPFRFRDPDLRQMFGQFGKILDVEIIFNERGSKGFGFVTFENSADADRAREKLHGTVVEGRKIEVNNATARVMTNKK
Sequence	RBNS enrichment (R)
UUGCAGCACAUGAUGCCAGAAAUAGCACUGAAUCAAGAAAAUAGCCAUUGCGGAGCUGCCCUCUUGAGUCUUUCUGUCCAUCCCAUUCUAUUCUGUACUGUGACUUUAGU	1.02
UGGGCAAACACUGAAAAAAGUGCCUUACAGUAUUUCUGCUCAUGAAAGAGUUUCACUAUUUUGGAUAUAUUCUAAAGUGGACCUGAGCUAUUUGAGCAAAUAAUGAUAGG	0.341
UCCUCUAUCCGUAAGUGUCCUUCCAUGCAAGGUCCCACUCUAGGUGAUAGACAGGGACCCCUUCUACUGAACCUUUGAGGAAAGGAGGAAGGAAGAAAUGCGUUUAGAUC	0.282
AGAGCUGGGCCCCCUGAGCCCACUGGGUCUUCAGGGUGCACUGGAAGCUGGUGUUCGCUGUCCCCUGUGCACUUCUCGCACUGGGGCAUGGAGUGCCCAUGCAUACUCUG	0.212
AGCCUCAAAGCUGCUGUACCUGCACAUGGUCCUGAGAACAUCUCUCUAGGCCUGUACCACACCUCUCUGCCUGUAGAACCUGUGAGAUCAUUGCCUGUGGCCUCUGUCAC	0.41
ACACUUUGAGAUACUUAAAGAAAUUCAGAGCAUAUCGAAUGUUAUGAAUGAAGAGUAAAAUAAUUACAGGAAAAGAAUGCAUGAUUUUUCAUUGUCACACCAAAUAACCA	40.9
GAUGUACUAGCUAAAGUCUCUUUAUGUGUCAGUAUUAAGAGUAAUAUGUAGCCAGAUUACUUAAAUCUCAGAAUUACUAAGCAUGUGGCAUAAAUUUGGAGAAAAUAAUA	19.2
CUGGCCCUGUGGUUCGGUUCUCACAGUUCCAGUGAGACUGGGCAGCGUGUUUGCCUGUCCUGAGGUGCCAGGCCUGCAGAGAGUGGACUCUGGUGGGUGCUUCCUUCCUC	0.26

Sample 2
Target: Sal-like protein 4, full length isoform B (SALL4, Homo sapiens, UniProt Q9UJQ4-2, residues 1-616)
Technique: universal PBM
Form: double-stranded DNA, one strand shown
Matrix: in vitro
Concentration: not given
Setting: 8-mer, flanks averaged, mean of replicates
Reading: higher = stronger binding
Sequence	E-score
CTATTCAC	0.0644
TGTAGGAA	0.125
AAGGGGCA	-0.149
GCTTTACC	0.00977
ATACAAAG	0.289
GTGCGCGA	-0.226
AAGACTAT	0.144
AAGGGATC	-0.0757
TACGCAAA	0.0827
CAGTGGAC	-0.102
ATCTATTG	0.235
CGCGAAAG	-0.205
CTAAGAGA	-0.0387
ACCGGATC	-0.225
GACTGACC	-0.302
CGCAGCAA	-0.147
CATAAACA	0.351
CGGCTGCA	-0.371
TCCAGACA	-0.155
CGTCTTAA	-0.0207
AACTGGGC	-0.298
CGACGCAG	-0.298
GACTACCA	0.0596
CAAAACCC	0.0207
CTCGAGCC	-0.163

Sample 3
Target: TAR DNA-binding protein 43, full length, His tag (TARDBP, Homo sapiens, UniProt Q13148, residues 1-414)
Technique: RNA Bind-n-Seq
Form: RNA
Matrix: in vitro
Concentration: 20 nM
Setting: 6-mer, flanks averaged, single round
With: 150 mM KCl
Baseline: input library
Reading: higher = stronger binding
Sequence	6-mer enrichment (R)
AUCAAU	0.598
UCGGCG	1.34
GACUUU	0.621
UCCUGU	0.616
AUUUUU	0.781
AGAUAC	0.628
AGAUCU	0.575
GAGGGA	5.06
GAAUAU	0.694
GGAGAG	3.9
AGUGUU	0.836
UAGGAU	0.743
AGAUAA	0.657
CAUCCG	0.636
AGGCGC	1.38
UCAACU	0.564
CAAUCU	0.568
GCGCUA	0.871
AAUCUG	0.629
AAAUCC	0.577
UUGUAU	0.742

Sample 4
Target: Transcription factor Sp1 (SP1, Homo sapiens, UniProt P08047, residues 1-785, full length assumed)
UniProt P08047, sequence (whole entry, looked up): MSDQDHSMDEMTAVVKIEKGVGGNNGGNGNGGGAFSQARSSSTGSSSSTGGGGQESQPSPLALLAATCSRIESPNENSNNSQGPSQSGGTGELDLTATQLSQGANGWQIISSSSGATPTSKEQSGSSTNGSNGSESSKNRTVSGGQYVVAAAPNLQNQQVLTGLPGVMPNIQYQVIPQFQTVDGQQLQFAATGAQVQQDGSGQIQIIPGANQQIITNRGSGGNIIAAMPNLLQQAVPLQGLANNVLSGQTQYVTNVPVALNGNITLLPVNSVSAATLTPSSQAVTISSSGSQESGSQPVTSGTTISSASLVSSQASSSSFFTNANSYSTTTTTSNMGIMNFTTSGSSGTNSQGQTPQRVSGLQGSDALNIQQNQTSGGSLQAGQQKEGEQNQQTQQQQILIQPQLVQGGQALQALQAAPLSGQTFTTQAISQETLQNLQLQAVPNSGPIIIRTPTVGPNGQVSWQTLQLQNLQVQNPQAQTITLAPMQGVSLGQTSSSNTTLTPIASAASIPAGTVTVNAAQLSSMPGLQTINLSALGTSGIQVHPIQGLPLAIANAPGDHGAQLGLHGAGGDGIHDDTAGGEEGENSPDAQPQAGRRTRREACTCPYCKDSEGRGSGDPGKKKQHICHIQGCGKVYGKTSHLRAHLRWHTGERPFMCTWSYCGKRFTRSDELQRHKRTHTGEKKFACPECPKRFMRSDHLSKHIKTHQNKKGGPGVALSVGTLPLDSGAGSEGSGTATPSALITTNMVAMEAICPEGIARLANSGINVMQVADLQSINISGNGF
Technique: protein-binding microarray
Form: double-stranded DNA, one strand shown
Matrix: in vitro
Concentration: not given
Setting: k-mer, scored over probes, only values ≥0.25
Reading: higher = stronger binding
Sequence	E-score
CCCCTCGA	0.332
ACATACGA	0.274
CCCGCCTC	0.439
CCCACTTA	0.295
CCCACCCC	0.485
AAGGGGCG	0.443
CCACCCAC	0.411
CCCCCCTC	0.317
CTCCCCTC	0.444
GGGCGGCA	0.303
TACGTTGA	0.294
TACGCCCA	0.346
ACAACAAT	0.294
ATATTCCA	0.272
ACATAGCA	0.283
ACGAGGGG	0.257
ACACGCCC	0.414
CAACAACA	0.307
